{"data": "Results pooled from the literature", "note": "Parts stem from different laboratories: compare values within a part only. Several values in a cell are separate wells, animals, samples, runs or records. Changes are numbered by the printed parent chain."}
{"data": "Study 1", "target": "vanadate, free oxyanion", "technique": "microfluidic competitive inhibition", "matrix": "in vitro, cell-free expressed", "concentration": "not given", "setting": "derived from inhibition constants, unchanged parent 676 nM", "direction": "lower = stronger binding", "starting sequence": "PafA, mature enzyme, eGFP fusion (Elizabethkingia meningoseptica, UniProt Q9KJX5); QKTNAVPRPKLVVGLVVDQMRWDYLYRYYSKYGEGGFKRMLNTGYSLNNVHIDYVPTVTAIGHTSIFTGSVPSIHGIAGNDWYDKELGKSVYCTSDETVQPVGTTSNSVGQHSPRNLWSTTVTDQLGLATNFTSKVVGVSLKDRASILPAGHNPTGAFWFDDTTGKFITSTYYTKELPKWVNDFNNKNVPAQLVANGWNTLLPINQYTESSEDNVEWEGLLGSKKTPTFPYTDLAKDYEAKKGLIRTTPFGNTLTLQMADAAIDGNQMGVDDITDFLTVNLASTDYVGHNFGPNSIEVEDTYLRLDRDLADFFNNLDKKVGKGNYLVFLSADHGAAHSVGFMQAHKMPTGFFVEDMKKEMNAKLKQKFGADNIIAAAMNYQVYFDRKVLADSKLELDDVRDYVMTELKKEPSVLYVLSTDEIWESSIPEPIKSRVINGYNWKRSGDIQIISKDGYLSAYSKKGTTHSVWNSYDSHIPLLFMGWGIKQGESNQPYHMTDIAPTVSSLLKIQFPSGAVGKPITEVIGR"}
{"Substitution": "V55G", "oxyanion analog dissociation constant": "721 nM"}
{"Substitution": "L47G", "oxyanion analog dissociation constant": "812 nM"}
{"Substitution": "D81V", "oxyanion analog dissociation constant": "1.38 µM"}
{"Substitution": "D162G", "oxyanion analog dissociation constant": "2.76 µM"}
{"Substitution": "Y439G", "oxyanion analog dissociation constant": "3.04 µM"}
{"Substitution": "H466G", "oxyanion analog dissociation constant": "23.3 µM"}
{"Substitution": "V122G", "oxyanion analog dissociation constant": "699 nM"}
{"Substitution": "L117V", "oxyanion analog dissociation constant": "656 nM"}
{"data": "Study 2", "Molecule": "meglumine antimoniate", "organism": "Leishmania infantum chagasi", "technique": "qPCR", "host": "golden hamster chronic infection", "route": "intraperitoneal", "dose": "50 mg/kg/day", "time": "10 days"}
{"item": "IL10 mRNA", "matrix": "spleen", "threshold cycle": "26.7 cycles and 29.9 cycles and 30.3 cycles and 29.1 cycles and 30.6 cycles and 27 cycles"}
{"item": "microglobulin mRNA", "matrix": "spleen", "threshold cycle": "22.6 cycles and 21.9 cycles and 18.1 cycles and 18.2 cycles"}
{"item": "IL-17 mRNA", "matrix": "liver", "threshold cycle": "35.9 cycles and 34 cycles and 33.3 cycles and 33.4 cycles and 35.4 cycles"}
{"item": "IFN-γ mRNA", "matrix": "spleen", "threshold cycle": "33.8 cycles and 32.8 cycles and 29.9 cycles and 33.4 cycles and 28.3 cycles and 36 cycles"}
{"item": "TNF mRNA", "matrix": "liver", "threshold cycle": "26 cycles and 28.2 cycles and 28.6 cycles and 27.6 cycles and 28 cycles and 28.5 cycles"}
{"data": "Study 3", "target": "CCNE1, cyclin fold, Cln2 fusion (human)", "technique": "yeast growth competition, sequencing", "matrix": "yeast", "setting": "strong parent motif", "relative to": "not given", "direction": "higher = stronger binding", "starting sequence": "viral docking peptide; PTARRRLLHDLDT"}
{"Substitution": "R6A", "normalised enrichment score": 1.14}
{"Substitution": "D12A", "normalised enrichment score": 0.542}
{"Substitution": "R5K L8F", "normalised enrichment score": 3.85}
{"Substitution": "R5A R6A L7A L8A", "normalised enrichment score": -0.142}
{"Substitution": "H9F", "normalised enrichment score": 6.15}
{"Substitution": "P1A", "normalised enrichment score": 1.19}
{"Substitution": "R5K", "normalised enrichment score": 0.0853}
{"Substitution": "D10A", "normalised enrichment score": 0.013}
{"data": "Single results of other studies"}
{"SMILES": "CNCc1ccc(-c2[nH]c3cc(F)cc4c3c2CCNC4=O)cc1", "cell line": "RPE-1 BRCA1-/-", "concentration": "1 µM", "setting": "unit not given", "relative to": "untreated", "quantity": "clonogenic survival", "value": 0}
{"note": "Some of these lines once more (study 2):"}
{"item": "IFN-γ mRNA", "matrix": "spleen", "threshold cycle": "33.8 cycles and 32.8 cycles and 29.9 cycles and 33.4 cycles and 28.3 cycles and 36 cycles"}
{"item": "TNF mRNA", "matrix": "liver", "threshold cycle": "26 cycles and 28.2 cycles and 28.6 cycles and 27.6 cycles and 28 cycles and 28.5 cycles"}
